{"data": "Measurements of several laboratories", "note": "Every numbered part comes from another study and shows a few of its results, in no order. Positions count from the first letter of the parent shown."}
{"data": "Series 1", "target": "CCNE1, cyclin fold, Cln2 fusion (human)", "method": "yeast growth competition, sequencing", "matrix": "yeast", "setting": "strong parent motif", "reference": "not given", "direction": "higher = stronger binding", "parent": "viral docking peptide; YKVKRRLVFGADD"}
{"Change": "R6C", "normalised enrichment score": 3.21}
{"Change": "F9P", "normalised enrichment score": 0.124}
{"Change": "A11Y", "normalised enrichment score": 5.89}
{"Change": "K4Y", "normalised enrichment score": 1.56}
{"Change": "L7M", "normalised enrichment score": 0.55}
{"Change": "R6W", "normalised enrichment score": 2.32}
{"Change": "A11M", "normalised enrichment score": 6.42}
{"Change": "R5W", "normalised enrichment score": 0.979}
{"Change": "G10K", "normalised enrichment score": 4.31}
{"Change": "F9M", "normalised enrichment score": 1.24}
{"Change": "K2A", "normalised enrichment score": 5.77}
{"Change": "F9W", "normalised enrichment score": 2.6}
{"Change": "V8Q", "normalised enrichment score": 5.89}
{"Change": "K4S", "normalised enrichment score": 4.3}
{"Change": "L7T", "normalised enrichment score": -0.141}
{"Change": "A11K", "normalised enrichment score": 5.26}
{"data": "Series 2", "target": "OGT, full length, His-tagged (human)", "method": "phage display, sequencing", "matrix": "in vitro", "concentration": "1 µg OGT", "setting": "single substitutions, 15-mer displayed peptide, unchanged parent 16.7", "reference": "input library", "direction": "higher = stronger binding", "parent": "peptide; NSEYMPQYQIIFAHQ; partner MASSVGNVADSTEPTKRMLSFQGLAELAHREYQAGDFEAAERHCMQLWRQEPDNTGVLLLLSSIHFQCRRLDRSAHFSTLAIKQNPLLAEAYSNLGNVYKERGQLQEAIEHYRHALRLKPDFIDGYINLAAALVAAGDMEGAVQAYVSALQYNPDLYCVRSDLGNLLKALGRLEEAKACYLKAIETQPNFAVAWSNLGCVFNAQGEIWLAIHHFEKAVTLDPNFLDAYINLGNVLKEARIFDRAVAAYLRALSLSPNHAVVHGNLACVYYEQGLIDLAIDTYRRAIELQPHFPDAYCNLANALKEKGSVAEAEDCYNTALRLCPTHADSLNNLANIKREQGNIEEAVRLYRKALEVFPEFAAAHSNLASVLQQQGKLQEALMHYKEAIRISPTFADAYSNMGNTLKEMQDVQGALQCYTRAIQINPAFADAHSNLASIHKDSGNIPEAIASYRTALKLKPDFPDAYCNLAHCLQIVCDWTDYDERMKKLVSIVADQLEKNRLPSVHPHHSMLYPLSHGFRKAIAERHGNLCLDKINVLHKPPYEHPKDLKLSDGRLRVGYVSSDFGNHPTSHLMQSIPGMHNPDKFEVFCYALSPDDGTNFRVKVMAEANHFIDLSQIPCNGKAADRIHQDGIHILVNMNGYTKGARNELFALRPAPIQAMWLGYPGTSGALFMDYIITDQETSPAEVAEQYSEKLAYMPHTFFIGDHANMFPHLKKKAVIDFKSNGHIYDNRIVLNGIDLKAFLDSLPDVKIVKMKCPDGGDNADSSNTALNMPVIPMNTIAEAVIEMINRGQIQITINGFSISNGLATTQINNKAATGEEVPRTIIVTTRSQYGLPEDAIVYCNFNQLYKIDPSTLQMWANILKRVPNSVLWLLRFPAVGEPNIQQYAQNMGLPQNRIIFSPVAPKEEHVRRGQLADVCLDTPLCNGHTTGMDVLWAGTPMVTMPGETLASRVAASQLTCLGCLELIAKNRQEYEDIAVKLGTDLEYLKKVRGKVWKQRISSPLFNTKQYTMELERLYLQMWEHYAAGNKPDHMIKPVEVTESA"}
{"Change": "M5W", "fold enrichment [fold]": 11.5}
{"Change": "S2I", "fold enrichment [fold]": 13}
{"Change": "P6L", "fold enrichment [fold]": 4.61}
{"Change": "I10G", "fold enrichment [fold]": 0.0162}
{"Change": "A13L", "fold enrichment [fold]": 9.38}
{"Change": "Y8S", "fold enrichment [fold]": 0.443}
{"Change": "I10A", "fold enrichment [fold]": 0.71}
{"Change": "M5Y", "fold enrichment [fold]": 8.58}
{"data": "Series 3", "target": "tungstate, free oxyanion", "method": "microfluidic competitive inhibition", "matrix": "in vitro, cell-free expressed", "concentration": "not given", "setting": "derived from inhibition constants, unchanged parent 2230 nM", "direction": "lower = stronger binding", "parent": "PafA, mature enzyme, eGFP fusion (Elizabethkingia meningoseptica, UniProt Q9KJX5); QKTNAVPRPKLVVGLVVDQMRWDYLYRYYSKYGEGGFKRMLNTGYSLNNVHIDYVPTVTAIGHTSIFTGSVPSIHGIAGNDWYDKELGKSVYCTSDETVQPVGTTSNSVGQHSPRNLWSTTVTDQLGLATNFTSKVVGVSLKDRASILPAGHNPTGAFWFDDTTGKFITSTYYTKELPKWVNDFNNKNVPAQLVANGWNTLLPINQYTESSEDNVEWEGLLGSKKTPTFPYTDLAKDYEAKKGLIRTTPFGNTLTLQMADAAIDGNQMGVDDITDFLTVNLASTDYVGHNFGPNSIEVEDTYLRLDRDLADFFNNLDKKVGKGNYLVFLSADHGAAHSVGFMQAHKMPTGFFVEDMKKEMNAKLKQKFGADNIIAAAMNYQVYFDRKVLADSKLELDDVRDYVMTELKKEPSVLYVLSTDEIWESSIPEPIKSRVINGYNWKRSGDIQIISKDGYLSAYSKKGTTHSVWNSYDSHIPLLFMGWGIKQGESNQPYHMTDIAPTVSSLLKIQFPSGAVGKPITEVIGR"}
{"Change": "D183V", "oxyanion analog dissociation constant": "2.7 µM"}
{"Change": "D397V", "oxyanion analog dissociation constant": "2.6 µM"}
{"Change": "N131G", "oxyanion analog dissociation constant": "1.26 µM"}
{"data": "Series 4", "target": "Interferon regulatory factor 3, full length, phosphomimetic (IRF3, Homo sapiens, UniProt Q14653, residues 1-427, S386D/S396D/S398D/S402D/T404D/S405D)", "method": "protein-binding microarray", "molecule type": "double-stranded DNA, one strand shown", "matrix": "in vitro", "concentration": "2540 nM top", "setting": "60-bp whole probe", "with": "salmon DNA 0.4 mg/ml", "reference": "random background probes", "direction": "higher = stronger binding", "all sequences stand within": "GCCTAGCAC … GTCTTGATTCGCTTGACGCTGCTG", "Residues (chain)": "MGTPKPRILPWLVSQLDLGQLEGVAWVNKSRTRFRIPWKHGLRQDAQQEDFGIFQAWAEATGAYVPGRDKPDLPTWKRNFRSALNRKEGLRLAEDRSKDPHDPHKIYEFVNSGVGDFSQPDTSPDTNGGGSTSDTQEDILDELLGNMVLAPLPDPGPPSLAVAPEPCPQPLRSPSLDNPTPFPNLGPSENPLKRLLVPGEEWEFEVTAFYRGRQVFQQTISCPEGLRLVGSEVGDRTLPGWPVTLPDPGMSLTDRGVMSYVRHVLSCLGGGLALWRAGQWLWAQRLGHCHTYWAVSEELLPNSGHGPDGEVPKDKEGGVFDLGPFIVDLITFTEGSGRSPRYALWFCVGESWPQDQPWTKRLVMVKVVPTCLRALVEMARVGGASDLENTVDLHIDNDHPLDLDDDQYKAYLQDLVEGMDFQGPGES"}
{"Strand": "TTAGATATCGGGACTGGATCAGTGCTA", "fitted relative affinity": "0.0497 z-score"}
{"Strand": "GACGGACTGGACTTTCGTGACGTGCTA", "fitted relative affinity": "-0.485 z-score"}
{"Strand": "GCAGGGCTCTCTTCTGCTTCCGTGCTA", "fitted relative affinity": "-0.638 z-score"}
{"Strand": "TCAATTCTCAACCCTGGTACTGTGCTA", "fitted relative affinity": "0.73 z-score"}
{"Strand": "GACGGTATCCTACTGCTTACGTGCTAG", "fitted relative affinity": "2.54 z-score"}
{"Strand": "GACCTTCACCTCTCTGTCCCCGTGCTA", "fitted relative affinity": "0.0942 z-score"}
{"Strand": "TCAATGATCTCTCTGGGACTGTGCTAG", "fitted relative affinity": "-0.594 z-score"}
{"Strand": "GACGGTCTCCTACTGCAGACGTGCTAG", "fitted relative affinity": "1.24 z-score"}
{"data": "Mixed results", "HNRNPA1L2": "HNRNPA1L2 (Homo sapiens, UniProt Q32P51)"}
{"Substance": "HNRNPA3 (Homo sapiens, UniProt P51991)", "tested on": "HNRNPA1L2", "assay": "cross-linking MS", "setting": "hits only", "measurement": "interaction screen", "value": "cross-linked"}
{"Substance": "PhoQ, residues 284 288 289 292 302 303 NLGVHL", "tested on": "PhoP, residues 12 14 15 18 19 NHFIF (Escherichia coli, UniProt P23836)", "assay": "Sort-seq, refers to: YFP reporter", "system": "E. coli", "setting": "PhoQ-PhoP variant library, with: 10 µM Mg2+", "scale": "reference: high Mg2+ state, higher = stronger signaling", "measurement": "fold induction", "value": 4.95}
{"Substance": "HNRNPA2B1 (Homo sapiens, UniProt P22626)", "tested on": "HNRNPA1L2", "assay": "cross-linking MS", "setting": "hits only", "measurement": "interaction screen", "value": "cross-linked"}
{"note": "Repeated from above (series 2):"}
{"Change": "P6L", "fold enrichment [fold]": 4.61}
{"Change": "I10A", "fold enrichment [fold]": 0.71}
{"Change": "M5Y", "fold enrichment [fold]": 8.58}
{"Change": "I10G", "fold enrichment [fold]": 0.0162}
{"Change": "S2I", "fold enrichment [fold]": 13}
